Measured values gathered from unrelated publications.
Lines come from different studies, so protocols differ. ± gives the spread as reported.
CYP2C19: Cytochrome P450 2C19 (CYP2C19, Homo sapiens, UniProt P33261)
UniProt P33261, sequence (whole entry, looked up): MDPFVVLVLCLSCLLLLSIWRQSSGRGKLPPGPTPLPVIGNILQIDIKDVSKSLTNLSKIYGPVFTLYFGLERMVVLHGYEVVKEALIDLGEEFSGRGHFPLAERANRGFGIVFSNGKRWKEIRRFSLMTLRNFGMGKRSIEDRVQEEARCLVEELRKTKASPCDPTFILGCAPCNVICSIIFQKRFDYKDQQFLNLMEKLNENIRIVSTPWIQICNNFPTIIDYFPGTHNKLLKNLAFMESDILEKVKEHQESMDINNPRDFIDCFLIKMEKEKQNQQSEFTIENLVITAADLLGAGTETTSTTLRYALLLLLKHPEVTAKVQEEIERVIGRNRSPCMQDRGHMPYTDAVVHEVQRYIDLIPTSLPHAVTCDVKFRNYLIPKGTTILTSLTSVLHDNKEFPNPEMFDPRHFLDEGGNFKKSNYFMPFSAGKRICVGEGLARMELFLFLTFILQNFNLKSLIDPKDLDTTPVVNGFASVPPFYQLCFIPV
UniProt P08684, sequence (whole entry, looked up): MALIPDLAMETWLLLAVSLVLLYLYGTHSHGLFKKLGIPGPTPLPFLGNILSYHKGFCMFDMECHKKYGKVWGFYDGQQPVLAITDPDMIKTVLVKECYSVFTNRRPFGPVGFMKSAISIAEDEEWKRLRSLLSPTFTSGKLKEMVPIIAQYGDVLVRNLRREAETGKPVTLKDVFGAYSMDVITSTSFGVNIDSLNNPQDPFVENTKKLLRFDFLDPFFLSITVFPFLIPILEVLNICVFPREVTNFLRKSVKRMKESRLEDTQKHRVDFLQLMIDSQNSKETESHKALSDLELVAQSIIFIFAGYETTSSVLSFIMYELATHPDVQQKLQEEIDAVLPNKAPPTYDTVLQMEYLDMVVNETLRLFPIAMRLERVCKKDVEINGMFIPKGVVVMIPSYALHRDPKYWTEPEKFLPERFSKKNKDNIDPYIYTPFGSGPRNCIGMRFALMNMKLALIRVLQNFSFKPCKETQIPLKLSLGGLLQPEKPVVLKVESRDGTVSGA

`CC(C)NCC(O)c1ccc(NS(C)(=O)=O)cc1` (racemic) gave a QTc interval of 372 ± 0.3 ms (male Hartley guinea pig, anaesthetized; intravenous infusion, 3 mg/kg, 10 min infusion, post-infusion).
`CC[C@H]1[C@@H](O)[C@@H]2[C@H](CC[C@]3(C)[C@@H]([C@H](C)CCNC(=O)NS(=O)(=O)c4ccc(C(C)(C)C)cc4)CC[C@@H]23)[C@@]2(C)CC[C@@H](O)C[C@@H]12` — result for “half-life geometric mean”: 11.8 h (Cytochrome P450 3A4 (CYP3A4, Homo sapiens, UniProt P08684); human, plasma; 10 mg, day 1, compound alone).
The Cmax increase of `COc1ccc2[nH]c([S+]([O-])Cc3ncc(C)c(OC)c3C)nc2c1` (stereo not drawn) is reported as about 32% (CYP2C19; human, plasma; oral, 20 mg, added: single dose encorafenib and binimetinib; relative to: Day -7 probe alone).
The QTc interval of `C[C@H](CS)C(=O)N1CCC[C@H]1C(=O)O` is reported as 359 ± 0.3 ms (male Hartley guinea pig, anaesthetized; intravenous, 30 mg/kg, baseline before infusion).
`COc1ccc2nc([S+]([O-])Cc3ncc(CO)c(OC)c3C)[nH]c2c1` (stereo not drawn): “metabolite to parent Cmax ratio” 0.227 (CYP2C19; human, plasma; oral, 20 mg omeprazole, Day 14, added: encorafenib at steady state; relative to: 5-hydroxyomeprazole over omeprazole).
`COc1c(N2C[C@@H]3CCCN[C@@H]3C2)c(F)cc2c(=O)c(C(=O)O)cn(C3CC3)c12` has a QTc interval of 305 ± 0.4 ms (male Hartley guinea pig, anaesthetized; intravenous infusion, 1 mg/kg, 10 min infusion, post-infusion).
For `Cc1noc(C)c1Cn1cc(N2C(=O)CN(Cc3cccc(O)c3)C2=O)cn1`, “aberrant cells with gaps” read 3.9% (human blood lymphocytes; 1200 µg/mL, 3 h, with 5% S9).
`Cc1cc(Nc2ccc(S(F)(F)(F)(F)F)cc2)n2nc(C(C)(F)F)nc2n1`: “patients with administration site conditions” 36.4% (Plasmodium falciparum; P. falciparum malaria patients; oral, 250 mg).
`COc1cccc2c1C(=O)c1c(O)c3c(c(O)c1C2=O)C[C@@](O)(C(=O)CO)C[C@@H]3O[C@H]1C[C@H](N)[C@H](O)[C@H](C)O1` has a viability of 62.8% (BNL mouse liver cells; SRB; 10 µM, 10% fetal bovine serum).

Excerpt of the above:
`COc1ccc2nc([S+]([O-])Cc3ncc(CO)c(OC)c3C)[nH]c2c1` (stereo not drawn): “metabolite to parent Cmax ratio” 0.227 (CYP2C19; human, plasma; oral, 20 mg omeprazole, Day 14, added: encorafenib at steady state; relative to: 5-hydroxyomeprazole over omeprazole).
